{"data": "Measured values collected from several papers", "UniProt P45983, sequence (whole entry, looked up)": "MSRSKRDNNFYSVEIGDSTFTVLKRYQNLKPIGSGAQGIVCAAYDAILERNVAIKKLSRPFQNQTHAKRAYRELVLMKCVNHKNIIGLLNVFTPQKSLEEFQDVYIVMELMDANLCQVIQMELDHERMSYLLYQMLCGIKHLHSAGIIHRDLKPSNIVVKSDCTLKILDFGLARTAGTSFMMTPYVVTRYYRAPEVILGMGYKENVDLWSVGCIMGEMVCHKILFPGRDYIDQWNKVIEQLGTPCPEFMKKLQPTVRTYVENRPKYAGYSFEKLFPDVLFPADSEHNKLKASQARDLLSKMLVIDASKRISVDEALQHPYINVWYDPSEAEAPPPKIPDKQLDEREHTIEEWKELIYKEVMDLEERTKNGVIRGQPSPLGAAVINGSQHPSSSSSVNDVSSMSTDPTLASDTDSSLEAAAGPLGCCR"}
{"Compound": "O=C([O-])CN1CCN(CC(=O)[O-])CCN(CC(=O)[O-])CC1.[44Sc+3]", "test system": "mouse, liver", "setting": "intravenous, 1 h", "quantity": "tracer uptake", "result": "0.21 %ID/g"}
{"Compound": "C=C(NC(=O)c1csc(-c2nc3c(cc2O)-c2nc(cs2)C(=O)NC(C(C)O)C(=O)NC(=C(C)OC)c2nc(cs2)C(=O)NC2c4nc(cs4)C(=O)NC(COC(=O)c4c5c6c(cccc6n4O)COC(=O)C(OC4CC(C)(O)C(N(C)C)C(C)O4)C2OC5)c2nc-3cs2)n1)C(N)=O (stereo not drawn)", "test system": "ICR mice, Streptococcus pneumoniae ATCC 49169 infected, immunocompromised, blood", "setting": "intravenous, 8 mg/kg/day twice daily", "quantity": "Cmax", "result": "318 ng/mL"}
{"Compound": "CN([O-])C(=O)CN1CCN(CC(=O)N(C)[O-])CCN(CC(=O)N(C)[O-])CC1.[89Zr+4]", "assay": "radio-TLC", "test system": "human serum", "setting": "7 days, run 1", "quantity": "intact complex", "result": "98%"}
{"Compound": "Cc1ncsc1-c1ccc(C(C)NC(=O)C2CC(O)CN2C(=O)C(NC(=O)CCCCCCCCCCN2CCCC(Nc3ncc(Cl)c(Nc4ccccc4S(=O)(=O)C(C)C)n3)C2)C(C)(C)C)cc1 (stereo not drawn)", "target or system": "22Rv1", "assay": "RNA-seq, measured: USP2 mRNA", "setting": "concentration not given", "scale": "relative to: DMSO", "quantity": "log2 fold change", "result": -1.63}
{"Compound": "CC(C)OCCOCc1ccc(OCC(O)CN(N=O)C(C)C)cc1 (stereo not drawn)", "target or system": "Escherichia coli", "assay": "Ames test", "test system": "WP2 uvrA", "setting": "500 µg/plate, 30 % rat S9", "scale": "relative to: solvent control", "quantity": "revertant fold increase", "result": "0.8 fold"}
{"Compound": "Cc1nn(-c2cccc(N)c2)c(=O)c2cnc(Nc3ccc(N4CCNCC4)cc3)nc12", "target or system": "Mitogen-activated protein kinase 8 (MAPK8, Homo sapiens, UniProt P45983)", "assay": "kinase activity, inhibitor, SelectScreen kinase profiling", "quantity": "IC50", "result": "> 10 µM"}
{"Compound": "O=C([O-])CN1CCN(CC(=O)[O-])CCN(Cc2cccc(C(=O)[O-])n2)CC1.[18F-].[Sc+3]", "test system": "mouse, kidney", "setting": "intravenous, 1 h", "quantity": "tracer uptake", "result": "3.16 %ID/g"}
{"Compound": "CC[C@H](C)[C@@H]1NC(=O)[C@H](Cc2ccc(O)cc2)NC(=O)CCCSC[C@@H](C(=O)N(CC(=O)N[C@@H](CC(C)C)C(=O)NCC(N)=O)Cc2ccc(F)cc2)NC(=O)[C@H](CC(N)=O)NC(=O)[C@H](CCC(N)=O)NC1=O", "test system": "human", "setting": "intranasal, 400 µg repeated doses", "quantity": "severe adverse events", "result": "0%"}
{"Compound": "CN(Cc1ccccc1)C(=O)CN1CCN(CC(=O)[O-])CCN(Cc2cccc(C(=O)[O-])n2)CC1.[44Sc+3]", "test system": "mouse, liver", "setting": "intravenous, 1 h", "quantity": "tracer uptake", "result": "2 %ID/g"}
{"Compound": "O=C(O)CCCOc1ccc([18F])cc1-c1cc(-c2ccccc2C(F)(F)F)n(-c2ccccc2)n1", "assay": "OLINDA/EXM from mouse data, measured: Lower large intestine wall", "test system": "human adult", "quantity": "absorbed dose", "result": "15.2 µGy/MBq"}
{"Compound": "O=C(Nc1cnccc1-c1ccc([18F])nc1)c1ccnc(NC(=O)C2CC2)c1", "test system": "mice, transgenic, GSK-3β, early-stage, skin", "setting": "intravenous, dose not given, 120 min, with: tariquidar 15 mg/kg i.v. pre-dose", "quantity": "SUV", "result": 0.103}
{"Compound": "C/C(N)=N/C(=N\\S(=O)(=O)c1ccc(C(F)(F)F)cc1)N1C[C@H](c2ccccc2)C(c2ccc(Cl)cc2)=N1", "test system": "male C57BL/6 mouse, brain", "setting": "oral, 10 mg/kg", "quantity": "Cmax", "result": "26.6 ng/mL"}
{"Compound": "CCN(CC)CC#CCNc1ccnc2cc(Cl)ccc12", "target or system": "Salmonella typhimurium", "assay": "mini-Ames test", "test system": "TA100", "setting": "500.0 µg/well, with: rat liver S9", "quantity": "revertant count", "result": "14 revertants/well"}
{"Compound": "COC1CN([C@H]2CC[C@H]([C@@]3(C)Oc4c(Cl)cc(C(=O)NCc5c(SC)cc(C)[nH]c5=O)c(C)c4O3)CC2)C1", "assay": "RNA-seq, measured: OSGIN2 mouse homolog", "test system": "mouse, HT-1376 xenograft, whole blood", "setting": "dose not given", "scale": "relative to: vehicle", "quantity": "log2 fold change", "result": 0.0336}
{"Compound": "COc1cnc2cccc(N3CCc4c(cc(Cn5ccnc5)cc4-c4cn(C)nc4C(F)(F)F)C3=O)c2c1", "test system": "male CD-1 mouse, plasma", "setting": "oral, 50 mg/kg", "quantity": "MRT(0-inf)", "result": "2.4 h"}
